Results collected from several papers.
Each line is one published result; not all experiments were run side by side.
Organism: Klebsiella pneumoniae

| SMILES | test | system | setting | MIC |
| --- | --- | --- | --- | --- |
| CC[C@H](C)[C@H](N)C(=O)N[C@@H](CO)C(=O)N[C@@H](Cc1ccccc1)C(=O)N[C@@H](CC(C)C)C(=O)NCC(=O)N[C@@H](CO)C(=O)N[C@@H](CCCCN)C(=O)N[C@H](C(=O)N[C@H](C(=O)N[C@H](C(=O)N[C@@H](CC(C)C)C(=O)N[C@@H](CC(C)C)C(=O)N[C@@H](CCCCN)C(=O)N[C@@H](CCCNC(=N)N)C(=O)N[C@@H](CCCNC(=N)N)C(=O)N[C@@H](CCCCN)C(=O)N[C@@H](CCCNC(=N)N)C(=O)N[C@@H](CCCCN)C(=O)N[C@@H](CCCNC(=N)N)C(=O)N[C@@H](CCCCN)C(N)=O)C(C)C)C(C)C)C(C)C | broth microdilution | ATCC 13883 | highest value reported | 64 µM |
| CN(C)[C@@H]1C(O)=C(C(N)=O)C(=O)[C@@]2(O)C(O)=C3C(=O)c4c(O)cnc(Cl)c4C[C@H]3C[C@@H]12.Cl |  | tet(A)-carrying |  | > 32 mg/L |
| C[C@@H](O)[C@H]1C(=O)N2C(C(=O)O)=C(SCCN=CN)C[C@H]12 |  | K2 | after induction, together with: ceftazidime-avibactam, avibactam fixed | 64 mg/L |
| CN(C)[C@@H]1C(O)=C(C(N)=O)C(=O)[C@@]2(O)C(O)=C3C(=O)c4c(O)c(NC(=O)CNC(C)(C)C)nc(F)c4C[C@H]3C[C@@H]12.Cl.Cl |  | tet(A)-carrying |  | > 32 mg/L |
| COc1ccc2ccc(O)c(/C=N/[C@H]3CCCC[C@H]3/N=C/c3ccc(-c4ccccc4)cc3O)c2c1 | bacterial growth, broth microdilution | carbapenem-resistant |  | > 40 µM |
| CN(C)[C@@H]1C(O)=C(C(N)=O)C(=O)[C@@]2(O)C(O)=C3C(=O)c4c(O)cnc(F)c4C[C@H]3C[C@@H]12.Cl |  | tet(A)-carrying |  | > 32 mg/L |
| CC(=O)N[C@@H](C)C(=O)N[C@@H](CCCCN)C(=O)N[C@@H](CC(C)C)C(=O)N[C@@H](CC(C)C)C(=O)N[C@@H](CCCCN)C(=O)N[C@@H](CC(C)C)C(=O)N[C@@H](CC(C)C)C(=O)N[C@@H](CCCCN)C(=O)N[C@@H](CCCCN)C(=O)N1CCC[C@H]1C(=O)N[C@@H](CC(C)C)C(=O)N[C@@H](CCCCN)C(=O)N[C@@H](CC(C)C)C(=O)N[C@@H](CC(C)C)C(=O)N[C@@H](CCCCN)C(N)=O | broth microdilution | ATCC 700603 | 18 h, 37 °C, compound alone | > 80 µM |
| CO[C@@]1(NC(=O)Cc2cccs2)C(=O)N2C(C(=O)O)=C(COC(N)=O)CS[C@@H]21 | broth microdilution | ATCC 43816 acrAB overexpressor | together with: colistin 0.5 mg/L | 4 mg/L |
| CC[C@H](C)[C@H](NC(=O)[C@H](Cc1c[nH]c2ccccc12)NC(=O)[C@@H](NC(=O)[C@H](Cc1ccc(O)cc1)NC(=O)[C@@H]1CCCN1C(=O)[C@@H](NC(=O)[C@H](C)N)[C@@H](C)CC)[C@@H](C)CC)C(=O)N[C@@H](Cc1ccc(O)cc1)C(=O)N[C@@H](CCCNC(=N)N)C(=O)N[C@@H](CC(C)C)C(=O)N[C@@H](CC(C)C)C(=O)N[C@@H](CCCNC(=N)N)C(=O)N[C@@H](CCCCN)C(=O)NCC(N)=O | broth microdilution | ATCC 700603 | 18 h, 37 °C | > 15 µM |
| CC(=O)N[C@@H](CC(C)C)C(=O)N[C@@H](CC(C)C)C(=O)N[C@@H](CCCCN)C(=O)N[C@@H](CC(C)C)C(=O)N[C@@H](CC(C)C)C(=O)N[C@@H](CCCCN)C(=O)N[C@@H](CCCCN)C(=O)N1CCC[C@H]1C(=O)N[C@@H](CC(C)C)C(=O)N[C@@H](CCCCN)C(=O)N[C@@H](CC(C)C)C(=O)N[C@@H](CC(C)C)C(=O)N[C@@H](CCCCN)C(N)=O | broth microdilution | ATCC 700603 | 18 h, 37 °C, compound alone | > 80 µM |
| CCCc1nc(Cl)c2c(c1O)C(=O)C1=C(O)[C@]3(O)C(=O)C(C(N)=O)=C(O)[C@@H](N(C)C)[C@@H]3C[C@@H]1C2.Cl |  | tet(A)-carrying |  | > 32 mg/L |
| CN1C(=O)Cc2ccc(F)c(CCNC[C@H]3CN(c4ccc5c(n4)NC(=O)CO5)C(=O)O3)c21 |  | ATCC 13883 |  | 0.06 mg/L |
| CCCCCCCC(=O)N[C@@H](CCCCN)C(=O)N[C@@H](CCCCN)C(=O)N[C@@H](C)C(=O)N[C@@H](CC(C)C)C(=O)N[C@@H](CCCCN)C(=O)N[C@@H](CC(C)C)C(=O)N[C@@H](C)C(=O)N[C@@H](CCCCN)C(=O)N[C@@H](CCCCN)C(=O)N1CCC[C@H]1C(=O)N[C@@H](CC(C)C)C(=O)N[C@@H](CCCCN)C(=O)N[C@@H](CC(C)C)C(=O)N[C@@H](CC(C)C)C(=O)N[C@@H](CCCCN)C(N)=O | broth microdilution | ATCC 700603 | 18 h, 37 °C, compound alone | > 80 µM |
| CC1=C[C@@H]2CN(C(=O)N2OS(=O)(=O)O)[C@@H]1C(N)=O |  | ATCC 700603, ESBL-positive | compound alone | > 128 mg/L |
| CN(C)c1cc(NC(=O)CNC(C)(C)C)c(O)c2c1C[C@H]1C[C@H]3[C@H](N(C)C)C(O)=C(C(N)=O)C(=O)[C@@]3(O)C(O)=C1C2=O | broth microdilution | KPC-100 producing |  | 2 mg/L |
| CC[C@H](C)[C@H](NC(=O)[C@H](CC(C)C)NC(=O)[C@H](CCCNC(=N)N)NC(=O)[C@H](CC(C)C)NC(=O)[C@@H](NC(=O)[C@@H](NC(=O)[C@H](CCCNC(=N)N)NC(=O)[C@@H](NC(=O)[C@@H](NC(=O)[C@H](CCCNC(=N)N)NC(=O)[C@H](CCCNC(=N)N)NC(=O)[C@H](CCCNC(=N)N)NC(=O)[C@H](CO)NC(=O)[C@@H](N)CCCNC(=N)N)[C@@H](C)CC)[C@@H](C)CC)[C@@H](C)CC)C(C)C)C(=O)N[C@@H](CCCNC(=N)N)C(=O)N[C@@H](CCCNC(=N)N)C(=O)N[C@@H](CO)C(=O)N[C@@H](C)C(=O)N[C@@H](CCCNC(=N)N)C(N)=O | broth microdilution | ATCC 13883 | highest value reported | 4 µM |
| CC(=O)N[C@@H](CCCCN)C(=O)N[C@@H](CC(C)C)C(=O)N[C@@H](CC(C)C)C(=O)N[C@@H](CCCCN)C(=O)N[C@@H](CC(C)C)C(=O)N[C@@H](CC(C)C)C(=O)N[C@@H](CCCCN)C(=O)N[C@@H](CCCCN)C(=O)N1CCC[C@H]1C(=O)N[C@@H](CC(C)C)C(=O)N[C@@H](CCCCN)C(=O)N[C@@H](CC(C)C)C(=O)N[C@@H](CC(C)C)C(=O)N[C@@H](CCCCN)C(N)=O | broth microdilution | ATCC 700603 | 18 h, 37 °C, compound alone | > 80 µM |
| CN(C)c1cc(NC(=O)CNC(C)(C)C)c(O)c2c1C[C@H]1C[C@H]3[C@H](N(C)C)C(O)=C(C(N)=O)C(=O)[C@@]3(O)C(O)=C1C2=O | broth microdilution | ATCC 43816 acrAB overexpressor |  | < 0.5 mg/L |
| CC[C@H](C)[C@H](NC(=O)CNC(=O)[C@H](CC(=O)O)NC(=O)[C@H](CCCNC(=N)N)NC(=O)[C@@H](NC(=O)[C@H](CC(N)=O)NC(=O)[C@H](CCCNC(=N)N)NC(=O)CNC(=O)[C@@H](NC(=O)[C@H](CCCCN)NC(=O)[C@H](CCC(=O)O)NC(=O)[C@@H](NC(=O)[C@H](CCCCN)NC(=O)[C@H](CCCCN)NC(=O)[C@H](Cc1ccccc1)NC(=O)[C@@H](NC(=O)[C@H](CCCCN)NC(=O)[C@H](Cc1c[nH]c2ccccc12)NC(=O)[C@@H](N)CCCNC(=N)N)[C@@H](C)CC)[C@@H](C)CC)C(C)C)C(C)C)C(=O)N[C@H](C(=O)N[C@@H](CCCCN)C(=O)N[C@@H](C)C(=O)NCC(=O)N1CCC[C@H]1C(=O)N[C@@H](C)C(=O)N[C@H](C(=O)N[C@@H](C)C(=O)N[C@H](C(=O)N[C@H](C(=O)NCC(=O)N[C@@H](CCC(N)=O)C(=O)N[C@@H](C)C(=O)N[C@@H](C)C(=O)N[C@H](C(=O)N[C@H](C(=O)N[C@H](C(=O)N[C@@H](CCCCN)C(N)=O)C(C)C)C(C)C)[C@@H](C)O)C(C)C)C(C)C)C(C)C)[C@@H](C)CC |  | NCCP 15864 carbapenem-resistant |  | 2 µM |
| CCN1CCN(C(=O)N[C@@H](C(=O)N[C@@H]2C(=O)N3[C@@H]2SC(C)(C)[C@@H]3C(=O)O)c2ccccc2)C(=O)C1=O | broth microdilution | ATCC 43816 acrAB overexpressor | together with: colistin 0.5 mg/L | 4 mg/L |
| CC[C@H](C)[C@H](NC(=O)[C@H](CCCCN)NC(=O)[C@H](Cc1c[nH]c2ccccc12)NC(=O)[C@H](Cc1c[nH]c2ccccc12)NC(=O)[C@H](CCCCN)NC(=O)[C@H](CCCCN)NC(=O)[C@H](CCCCN)NC(=O)[C@H](Cc1c[nH]c2ccccc12)NC(=O)[C@H](CCCCN)NC(=O)[C@H](CCCCN)NC(=O)[C@H](Cc1c[nH]c2ccccc12)NC(=O)[C@H](CCCCN)NC(=O)[C@H](CCCCN)NC(=O)[C@@H](NC(=O)[C@@H](NC(=O)[C@H](CCCCN)NC(=O)[C@@H](N)CCCNC(=N)N)[C@@H](C)CC)[C@@H](C)CC)C(=O)N[C@@H](Cc1c[nH]c2ccccc12)C(=O)N[C@@H](Cc1c[nH]c2ccccc12)C(=O)N[C@@H](CCCCN)C(=O)NCCOCCOCC(N)=O | broth microdilution | 10145 |  | 1.9 mg/L |
| CC[C@H](C)[C@H](NC(=O)CN)C(=O)NCC(=O)N[C@@H](C)C(=O)N[C@H](C(=O)N[C@@H](CC(C)C)C(=O)N[C@@H](CCCCN)C(=O)N[C@H](C(=O)N[C@@H](CC(C)C)C(=O)N[C@H](C(=O)N[C@H](C(=O)NCC(=O)N[C@@H](CC(C)C)C(=O)N1CCC[C@H]1C(=O)N[C@@H](C)C(=O)N[C@@H](CC(C)C)C(=O)N[C@H](C(=O)N[C@@H](CO)C(=O)N[C@@H](Cc1c[nH]c2ccccc12)C(=O)N[C@H](C(=O)N[C@@H](CCCCN)C(=O)N[C@@H](CCCNC(=N)N)C(=O)N[C@@H](CCCCN)C(=O)N[C@@H](CCCNC(=N)N)C(=O)N[C@@H](CCC(N)=O)C(=O)N[C@@H](CCC(N)=O)C(N)=O)[C@@H](C)CC)[C@@H](C)CC)[C@@H](C)O)[C@@H](C)O)C(C)C)C(C)C |  | NCCP 15782 carbapenem-resistant |  | 16 µM |
| CC[C@H](C)CCCCC(=O)N[C@@H](CCN)C(=O)N[C@H](C(=O)N[C@@H](CCN)C(=O)N[C@H]1CCNC(=O)[C@H]([C@@H](C)O)NC(=O)[C@H](CCN)NC(=O)[C@H](CCN)NC(=O)[C@H](CC(C)C)NC(=O)[C@@H](CC(C)C)NC(=O)[C@H](CCN)NC1=O)[C@@H](C)O | broth microdilution | BNCC 359393 |  | > 64 mg/L |
| CC[C@H](C)[C@H](NC(=O)[C@@H](NC(=O)[C@H](Cc1ccccc1)NC(=O)CNC(=O)[C@H](CCC(N)=O)NC(=O)[C@H](CCCCN)NC(=O)[C@H](C)N)C(C)C)C(=O)N[C@@H](Cc1ccc(O)cc1)C(=O)N[C@@H](CCCNC(=N)N)C(=O)N[C@H](C(=O)N[C@@H](CCCNC(=N)N)C(=O)N[C@H](C(=O)N[C@@H](CCCNC(=N)N)C(=O)N[C@@H](CCCNC(=N)N)C(=O)NCC(=O)N[C@@H](CC(N)=O)C(=O)N[C@@H](CCCNC(=N)N)C(=O)N[C@@H](CCCCN)C(N)=O)C(C)C)C(C)C | broth dilution | ATCC 700603 |  | 25 µM |

A few entries again:
| SMILES | test | system | setting | MIC |
| --- | --- | --- | --- | --- |
| CCCc1nc(Cl)c2c(c1O)C(=O)C1=C(O)[C@]3(O)C(=O)C(C(N)=O)=C(O)[C@@H](N(C)C)[C@@H]3C[C@@H]1C2.Cl |  | tet(A)-carrying |  | > 32 mg/L |
| CCN1CCN(C(=O)N[C@@H](C(=O)N[C@@H]2C(=O)N3[C@@H]2SC(C)(C)[C@@H]3C(=O)O)c2ccccc2)C(=O)C1=O | broth microdilution | ATCC 43816 acrAB overexpressor | together with: colistin 0.5 mg/L | 4 mg/L |
| CC(=O)N[C@@H](CCCCN)C(=O)N[C@@H](CC(C)C)C(=O)N[C@@H](CC(C)C)C(=O)N[C@@H](CCCCN)C(=O)N[C@@H](CC(C)C)C(=O)N[C@@H](CC(C)C)C(=O)N[C@@H](CCCCN)C(=O)N[C@@H](CCCCN)C(=O)N1CCC[C@H]1C(=O)N[C@@H](CC(C)C)C(=O)N[C@@H](CCCCN)C(=O)N[C@@H](CC(C)C)C(=O)N[C@@H](CC(C)C)C(=O)N[C@@H](CCCCN)C(N)=O | broth microdilution | ATCC 700603 | 18 h, 37 °C, compound alone | > 80 µM |
| CC[C@H](C)[C@H](NC(=O)[C@@H](NC(=O)[C@H](Cc1ccccc1)NC(=O)CNC(=O)[C@H](CCC(N)=O)NC(=O)[C@H](CCCCN)NC(=O)[C@H](C)N)C(C)C)C(=O)N[C@@H](Cc1ccc(O)cc1)C(=O)N[C@@H](CCCNC(=N)N)C(=O)N[C@H](C(=O)N[C@@H](CCCNC(=N)N)C(=O)N[C@H](C(=O)N[C@@H](CCCNC(=N)N)C(=O)N[C@@H](CCCNC(=N)N)C(=O)NCC(=O)N[C@@H](CC(N)=O)C(=O)N[C@@H](CCCNC(=N)N)C(=O)N[C@@H](CCCCN)C(N)=O)C(C)C)C(C)C | broth dilution | ATCC 700603 |  | 25 µM |
